Measured values collected from several papers.
A part holds a random share of what one study measured.

Series 1 — method: aptamer microarray, sandwich; form: DNA with 2'F-ANA; matrix: in vitro; concentration: 200 nM; with: Cy3 exosite-II aptamer, 400 nM; reading: higher = stronger binding; sequence: GGTTGGTGTGGTTGG
Target: Prothrombin, mature alpha-thrombin (F2, Homo sapiens, UniProt P00734)
Notes: whole 15-mer aptamer, many near background
Modification | mean fluorescence intensity [a.u.]
2'F-ANA at 1 2 5 7 8 9 11 15 | 59.5
2'F-ANA at 5 9 12 13 14 15 | 43.3
2'F-ANA at 1 2 4 7 8 10 11 14 15 | 54.1
2'F-ANA at 1 6 7 9 13 14 15 | 54.5
2'F-ANA at 1 3 12 13 14 15 | 127
2'F-ANA at 2 5 6 7 15 | 74.4

Series 2 — method: RNA Bind-n-Seq; form: RNA; matrix: in vitro; concentration: 365 nM; baseline: no-protein control; reading: higher = stronger binding
Target: RNA binding protein fox-1 homolog 2, RRM domain, GST-SBP tag (RBFOX2, Homo sapiens, UniProt O43251-10, residues 100-194)
Notes: natural RNA segment, single round, ends assumed
Constant ends, left off below: GGGAGUUCUACAGUCCGACGAUC … UGGAAUUCUCGGGUGCCAA
Sequence | RBNS enrichment (R)
AUAAACCUACUGUACUCAGUGCUUCUCCAAGAAUACUACAACGGAUGGUUGUACAGUUUGAUUGGAGGCAUGGGGUGUAUGUGAAGUUGGAAGCCUUUGAUAGUUACUGC | 0.516
UAGUGUUAUCUGACUAAUUCCUCUGAAUUUUGAUGUAAGAUCUAUAUAGGCCCCCAAAAUGAUCGUAGUACAUGCCAGUCAUUUCUCAGUGAAAUAAAUACAAUACCAGA | 0.498
GCUUCCCUGGCUGAGUCACAGGGCAGGGAAAUAAAGAAGUCUGGAGUGUUAGGACGGUUUGAGAGGGAAGGAGAGAGAGAAGAAAGACGAACCACUUGAGACUGAGACUG | 1.11
GGUGUAGCUGCCUCACAUGAGGUUAUUGCAAGAGUUCCCCUUGCAAUACCCUUUGUGCCCUCAAGAAUUAAAAGCCUCUAUGAUCCAGAGUUGCUAUGCACCAAAUUUUG | 0.544
AGACUAACUUCCAGAAUUAUACUUUAACCCCUCCCAGAUAUGGUCCGCCUUUGGCAUUGUGUGUACAUCUGCAGUUUUGCAUGGUGGGUUGUUAAUAUUUCAAAUGUGUG | 2.84
CAAAGAGUCCUAAGGAGUUAAAUCUUCCAGGUAUUUUCCACUUAGUAUUGCAGCCAAAGAAUAUUUAAAUAAACGUCUUUGCUGCGCUUGCAUCCAUGCCCAGCCAAUAU | 0.661
AUUGUGGCUUGAAGGACUGCACUAAAACCCACUAAAAAGAUGCGAAAACCUGAUGAGGGCAAACCAGUUAAACCUAACACCCUGCCUUGUCUGGGCUCAUCACCUCUCCC | 0.369

Series 3 — method: protein binding microarray; form: double-stranded DNA, one strand shown; matrix: in vitro; concentration: not given; baseline: not given; reading: higher = stronger binding
Target: Histone acetyltransferase KAT6A, winged helix 1, GST fusion (KAT6A, Homo sapiens, UniProt Q92794, residues 1-85)
Notes: 8-mer, flanks averaged, mean of 2 arrays, mostly near background
Construct (chain): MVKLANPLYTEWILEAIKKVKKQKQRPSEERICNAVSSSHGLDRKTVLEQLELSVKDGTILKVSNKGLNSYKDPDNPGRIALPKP
Sequence | E-score
TACTTGCA | -0.264
CGTGGTAC | 0.0251
GAATTTGC | -0.123
AGCCACTC | -0.199
ATTAAGCG | 0.14
AGCCATCA | -0.0543
CTGGAAGA | -0.105
ACCTGCGA | -0.033

Other studies, line by line
Substance | target | assay | system | setting | scale | quantity | result
PhoQ, residues 284 288 289 292 302 303 SNGLAW | PhoP, residues 12 14 15 18 19 TPWLV (Escherichia coli, UniProt P23836) | Sort-seq, item: YFP reporter | E. coli | PhoQ-PhoP variant library, with: 10 µM Mg2+ | baseline: high Mg2+ state, higher = stronger signaling | fold induction | 12.8

A few entries again (series 3):
Sequence | E-score
ATTAAGCG | 0.14
AGCCATCA | -0.0543
CTGGAAGA | -0.105
ACCTGCGA | -0.033
